{"data": "Assay results pooled from the literature", "DRD3": "D(3) dopamine receptor (DRD3, Homo sapiens, UniProt P35462)", "HDAC6": "Protein deacetylase HDAC6 (HDAC6, Homo sapiens, UniProt Q9UBN7)", "ADRA2C": "Alpha-2C adrenergic receptor (ADRA2C, Homo sapiens, UniProt P18825)", "note": "Each line is one published result; not all experiments were run side by side.", "sequence of UniProt P18825 (whole entry, looked up)": "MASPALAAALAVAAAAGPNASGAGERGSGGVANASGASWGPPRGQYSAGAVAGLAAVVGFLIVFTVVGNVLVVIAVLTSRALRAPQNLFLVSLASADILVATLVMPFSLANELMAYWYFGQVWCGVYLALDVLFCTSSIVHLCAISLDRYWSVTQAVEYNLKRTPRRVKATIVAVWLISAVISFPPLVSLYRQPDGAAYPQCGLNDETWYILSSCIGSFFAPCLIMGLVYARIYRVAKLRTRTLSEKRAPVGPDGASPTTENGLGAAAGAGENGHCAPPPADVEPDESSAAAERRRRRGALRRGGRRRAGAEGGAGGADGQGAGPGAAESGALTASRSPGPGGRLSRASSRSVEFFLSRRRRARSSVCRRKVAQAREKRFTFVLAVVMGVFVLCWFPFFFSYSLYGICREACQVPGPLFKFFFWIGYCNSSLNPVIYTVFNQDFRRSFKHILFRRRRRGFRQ", "sequence of UniProt P35462 (whole entry, looked up)": "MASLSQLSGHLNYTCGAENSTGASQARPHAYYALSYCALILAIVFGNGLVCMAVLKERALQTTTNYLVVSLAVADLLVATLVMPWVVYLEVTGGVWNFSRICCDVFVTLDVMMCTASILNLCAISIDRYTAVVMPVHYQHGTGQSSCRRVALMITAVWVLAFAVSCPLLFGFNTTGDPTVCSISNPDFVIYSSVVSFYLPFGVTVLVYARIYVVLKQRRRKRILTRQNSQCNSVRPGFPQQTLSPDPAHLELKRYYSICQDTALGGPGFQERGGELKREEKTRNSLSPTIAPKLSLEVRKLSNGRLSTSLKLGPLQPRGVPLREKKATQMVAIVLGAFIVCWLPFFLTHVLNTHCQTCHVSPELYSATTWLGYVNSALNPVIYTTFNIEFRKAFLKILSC", "sequence of UniProt Q9UBN7 (whole entry, looked up)": "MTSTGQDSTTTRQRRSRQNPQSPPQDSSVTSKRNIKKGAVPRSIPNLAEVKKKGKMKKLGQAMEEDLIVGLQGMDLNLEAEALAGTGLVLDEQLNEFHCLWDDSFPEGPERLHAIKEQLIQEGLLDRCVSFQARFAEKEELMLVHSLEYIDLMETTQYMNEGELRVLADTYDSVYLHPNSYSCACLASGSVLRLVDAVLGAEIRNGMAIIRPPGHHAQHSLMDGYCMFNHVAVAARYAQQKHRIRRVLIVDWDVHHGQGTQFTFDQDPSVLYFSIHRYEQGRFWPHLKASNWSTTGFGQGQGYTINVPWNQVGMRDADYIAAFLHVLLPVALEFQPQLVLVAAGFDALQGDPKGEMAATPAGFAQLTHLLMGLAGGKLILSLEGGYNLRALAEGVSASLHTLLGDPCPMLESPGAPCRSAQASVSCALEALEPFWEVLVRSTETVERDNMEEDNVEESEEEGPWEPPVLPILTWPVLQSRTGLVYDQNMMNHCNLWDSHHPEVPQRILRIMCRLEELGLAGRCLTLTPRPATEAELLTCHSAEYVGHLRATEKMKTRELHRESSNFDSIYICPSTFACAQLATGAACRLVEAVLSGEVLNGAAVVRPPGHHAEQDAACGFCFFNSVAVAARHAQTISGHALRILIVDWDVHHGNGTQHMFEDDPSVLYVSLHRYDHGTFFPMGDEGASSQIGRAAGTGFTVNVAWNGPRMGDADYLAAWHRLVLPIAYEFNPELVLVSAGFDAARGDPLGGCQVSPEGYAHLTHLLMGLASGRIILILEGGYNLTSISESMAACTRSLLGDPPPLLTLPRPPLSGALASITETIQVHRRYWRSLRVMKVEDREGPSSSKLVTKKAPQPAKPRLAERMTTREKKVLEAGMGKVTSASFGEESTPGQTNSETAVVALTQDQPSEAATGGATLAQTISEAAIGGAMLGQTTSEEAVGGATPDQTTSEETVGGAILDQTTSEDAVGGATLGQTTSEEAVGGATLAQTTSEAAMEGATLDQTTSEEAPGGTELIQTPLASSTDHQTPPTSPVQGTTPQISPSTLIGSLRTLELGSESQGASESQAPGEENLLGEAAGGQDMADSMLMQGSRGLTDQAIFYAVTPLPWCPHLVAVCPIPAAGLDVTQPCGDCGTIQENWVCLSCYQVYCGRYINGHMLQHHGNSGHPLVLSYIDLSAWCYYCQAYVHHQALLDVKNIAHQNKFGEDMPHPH", "sequence of UniProt Q9H4B4 (whole entry, looked up)": "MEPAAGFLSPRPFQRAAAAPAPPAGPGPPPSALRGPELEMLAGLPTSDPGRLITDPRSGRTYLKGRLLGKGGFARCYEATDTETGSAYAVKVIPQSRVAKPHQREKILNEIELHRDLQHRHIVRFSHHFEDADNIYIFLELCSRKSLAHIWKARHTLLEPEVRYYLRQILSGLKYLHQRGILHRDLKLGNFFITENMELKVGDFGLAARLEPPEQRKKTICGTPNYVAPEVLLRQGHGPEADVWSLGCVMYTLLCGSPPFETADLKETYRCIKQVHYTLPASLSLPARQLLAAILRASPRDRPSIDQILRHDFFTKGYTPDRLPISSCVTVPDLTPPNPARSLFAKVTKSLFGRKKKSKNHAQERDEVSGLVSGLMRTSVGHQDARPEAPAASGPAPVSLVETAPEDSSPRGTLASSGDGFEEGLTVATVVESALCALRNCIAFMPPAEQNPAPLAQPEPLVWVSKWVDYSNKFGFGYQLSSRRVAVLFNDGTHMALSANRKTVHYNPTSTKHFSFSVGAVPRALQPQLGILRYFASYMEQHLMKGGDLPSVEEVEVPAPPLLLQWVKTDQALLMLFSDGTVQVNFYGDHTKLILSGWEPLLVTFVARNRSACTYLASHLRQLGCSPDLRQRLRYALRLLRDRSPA", "sequence of UniProt Q9UKI8 (whole entry, looked up)": "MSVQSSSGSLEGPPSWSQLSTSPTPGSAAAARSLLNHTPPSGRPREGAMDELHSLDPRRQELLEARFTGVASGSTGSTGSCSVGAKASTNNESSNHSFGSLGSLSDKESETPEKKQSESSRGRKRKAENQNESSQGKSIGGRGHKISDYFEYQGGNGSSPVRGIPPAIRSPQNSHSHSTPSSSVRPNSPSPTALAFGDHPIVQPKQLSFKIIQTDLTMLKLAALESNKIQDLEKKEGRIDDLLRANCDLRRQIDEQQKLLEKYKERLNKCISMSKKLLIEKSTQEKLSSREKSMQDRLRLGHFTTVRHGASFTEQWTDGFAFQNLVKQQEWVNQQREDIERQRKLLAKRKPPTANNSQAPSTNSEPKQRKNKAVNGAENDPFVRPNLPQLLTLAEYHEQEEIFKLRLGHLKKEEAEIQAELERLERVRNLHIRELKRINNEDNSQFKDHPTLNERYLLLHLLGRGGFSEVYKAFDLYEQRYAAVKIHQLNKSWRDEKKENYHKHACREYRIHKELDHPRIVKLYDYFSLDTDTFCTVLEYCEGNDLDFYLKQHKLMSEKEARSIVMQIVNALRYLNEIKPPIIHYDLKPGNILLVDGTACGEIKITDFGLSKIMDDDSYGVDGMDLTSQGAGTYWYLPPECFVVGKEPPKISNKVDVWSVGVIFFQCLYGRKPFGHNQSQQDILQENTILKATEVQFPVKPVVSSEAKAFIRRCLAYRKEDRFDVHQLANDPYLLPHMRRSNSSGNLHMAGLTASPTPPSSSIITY", "sequence of UniProt P0DMS8 (whole entry, unmodified, looked up)": "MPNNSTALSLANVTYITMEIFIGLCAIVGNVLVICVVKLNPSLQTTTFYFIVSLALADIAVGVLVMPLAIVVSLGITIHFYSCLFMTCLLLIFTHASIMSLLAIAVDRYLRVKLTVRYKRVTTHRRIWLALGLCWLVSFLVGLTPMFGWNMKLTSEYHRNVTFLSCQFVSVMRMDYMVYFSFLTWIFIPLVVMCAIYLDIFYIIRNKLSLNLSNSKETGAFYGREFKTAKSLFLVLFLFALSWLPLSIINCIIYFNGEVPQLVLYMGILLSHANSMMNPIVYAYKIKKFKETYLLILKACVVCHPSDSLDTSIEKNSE", "sequence of UniProt O43283 (whole entry, looked up)": "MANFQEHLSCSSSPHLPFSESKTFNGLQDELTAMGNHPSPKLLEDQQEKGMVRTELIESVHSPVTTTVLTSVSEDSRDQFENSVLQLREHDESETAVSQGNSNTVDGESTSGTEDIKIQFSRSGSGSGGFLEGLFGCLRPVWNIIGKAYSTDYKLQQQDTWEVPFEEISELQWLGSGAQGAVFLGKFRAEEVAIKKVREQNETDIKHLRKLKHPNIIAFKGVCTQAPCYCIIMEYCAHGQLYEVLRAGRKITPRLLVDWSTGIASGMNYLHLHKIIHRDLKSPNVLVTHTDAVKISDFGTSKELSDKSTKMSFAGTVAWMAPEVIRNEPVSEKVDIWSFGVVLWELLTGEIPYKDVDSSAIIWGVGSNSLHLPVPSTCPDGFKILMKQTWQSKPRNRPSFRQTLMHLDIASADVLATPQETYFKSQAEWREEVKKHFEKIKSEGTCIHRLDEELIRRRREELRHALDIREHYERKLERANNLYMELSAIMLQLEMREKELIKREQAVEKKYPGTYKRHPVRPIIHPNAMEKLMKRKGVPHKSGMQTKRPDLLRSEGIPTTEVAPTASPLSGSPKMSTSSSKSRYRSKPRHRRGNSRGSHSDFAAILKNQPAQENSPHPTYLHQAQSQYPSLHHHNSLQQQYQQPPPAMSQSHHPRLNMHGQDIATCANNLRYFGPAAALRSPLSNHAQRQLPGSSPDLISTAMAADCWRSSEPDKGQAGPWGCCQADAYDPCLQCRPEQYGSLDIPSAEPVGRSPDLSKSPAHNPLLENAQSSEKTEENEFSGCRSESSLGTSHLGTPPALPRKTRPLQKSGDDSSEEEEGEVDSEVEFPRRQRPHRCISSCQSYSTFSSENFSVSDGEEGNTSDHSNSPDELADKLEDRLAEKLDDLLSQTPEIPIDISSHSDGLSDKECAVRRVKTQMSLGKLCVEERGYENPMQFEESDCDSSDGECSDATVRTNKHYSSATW"}
{"Structure (SMILES)": "Cc1[nH]c(C)c(S(=O)(=O)Nc2ccc(C(F)(F)F)c(Cl)c2)c1C(=O)N1CC(F)(F)C(F)(F)C1", "target": "DRD3", "read-out": "G protein activation", "action": "antagonist", "technique": "BRET", "endpoint": "IC50", "value": "7100 nM"}
{"Structure (SMILES)": "Cc1cc(Oc2ncccc2CN2CCN(c3ccccc3C#N)CC2)ccc1-c1c(C)c(=O)[nH]c(=O)n1C", "target": "Alpha-2B adrenergic receptor (ADRA2B, Homo sapiens, UniProt P18089)", "read-out": "ligand displacement", "technique": "radioligand", "endpoint": "Ki", "value": "206 nM"}
{"Structure (SMILES)": "Cc1cc(OS(=O)(=O)Oc2ccc(-n3ccnc3)cc2)cc(C(=O)NO)c1", "target": "HDAC6", "read-out": "enzyme activity", "action": "inhibitor", "technique": "fluorescence", "endpoint": "Ki", "value": "2110 nM"}
{"Structure (SMILES)": "Cc1ccc(NS(=O)(=O)c2c(C)[nH]c(C)c2C(=O)N2CCC(F)(F)C2)cc1Cl", "target": "DRD3", "read-out": "β-arrestin recruitment", "action": "antagonist", "endpoint": "IC50", "value": "9900 nM"}
{"Structure (SMILES)": "O=C(NO)c1cc(F)cc(OS(=O)(=O)Oc2ccc(Oc3ccccc3)cc2)c1", "target": "Histone deacetylase 8 (HDAC8, Homo sapiens, UniProt Q9BY41)", "read-out": "enzyme activity", "action": "inhibitor", "technique": "fluorescence", "endpoint": "IC50", "value": "5850 nM"}
{"Structure (SMILES)": "Cc1[nH]c(C)c(S(=O)(=O)Nc2ccc(Cl)c(Cl)c2)c1C(=O)N1CCC(F)(F)C1", "target": "DRD3", "read-out": "G protein activation", "action": "antagonist", "technique": "BRET", "endpoint": "IC50", "value": "2300 nM"}
{"Structure (SMILES)": "CCCCC(=O)Nc1ccc(-c2ccc3ncn(CCC)c(=O)c3c2)cn1", "target": "SNF-related serine/threonine-protein kinase (SNRK, Homo sapiens, UniProt Q9NRH2)", "read-out": "binding", "technique": "competition with immobilised ligand", "tested at": "0.5 µM", "endpoint": "remaining binding", "value": "100%"}
{"Structure (SMILES)": "Cc1cc(Oc2ncccc2CN2CCN(c3ccccc3C(F)(F)F)CC2)ccc1-c1c(C)c(=O)[nH]c(=O)n1C", "target": "ADRA2C", "read-out": "ligand displacement", "technique": "radioligand", "endpoint": "Ki", "value": "18.4 nM"}
{"Structure (SMILES)": "C1=C/COCc2cc(ccc2OCCN2CCCC2)Nc2nccc(n2)-c2cccc(c2)COC/1", "target": "Mitogen-activated protein kinase kinase kinase 13 (MAP3K13, Homo sapiens, UniProt O43283)", "read-out": "cell-free assay", "tested at": "0.1 µM", "endpoint": "remaining signal", "value": "61%"}
{"Structure (SMILES)": "Cc1cc(Oc2ncccc2CN2CCN(c3ncccc3C(F)(F)F)CC2)ccc1-c1c(C)c(=O)[nH]c(=O)n1C", "target": "ADRA2C", "read-out": "ligand displacement", "technique": "radioligand", "endpoint": "Ki", "value": "7.4 nM"}
{"Structure (SMILES)": "COc1ccc(OS(=O)(=O)Oc2cccc(C(=O)NO)c2)cc1OC", "target": "Histone deacetylase 1 (HDAC1, Homo sapiens, UniProt Q13547)", "read-out": "enzyme activity", "action": "inhibitor", "technique": "fluorescence", "endpoint": "Ki", "value": "504 nM"}
{"Structure (SMILES)": "C=CC(=O)N1CCC(COCC(=O)N2CCN(c3nc(-c4cnc(N)nc4C(F)F)nc(N4CCOC[C@@H]4C)n3)CC2)CC1", "target": "TRAF2 and NCK-interacting protein kinase (TNIK, Homo sapiens, UniProt Q9UKE5)", "read-out": "binding", "technique": "competition with immobilised ligand", "tested at": "1 µM", "endpoint": "remaining binding", "value": "92%"}
{"Structure (SMILES)": "CNc1ncc2c(/C=C/C(=O)N3CCC(OC)CC3)nn(Cc3cccc(C(F)(F)F)c3)c2n1", "target": "Serine/threonine-protein kinase tousled-like 1 (TLK1, Homo sapiens, UniProt Q9UKI8)", "read-out": "enzyme activity", "action": "inhibitor", "technique": "radiometric", "tested at": "1 µM", "endpoint": "remaining activity", "value": "92%"}
{"Structure (SMILES)": "Cc1[nH]c(C)c(S(=O)(=O)Nc2cc(Cl)cc(C(F)(F)F)c2)c1C(=O)N1CCC(F)(F)C1", "target": "DRD3", "read-out": "G protein activation", "action": "antagonist", "technique": "BRET", "endpoint": "IC50", "value": "12000 nM"}
{"Structure (SMILES)": "O=C(NO)c1cncc(OS(=O)(=O)Oc2ccc3ccccc3c2)c1", "target": "HDAC6", "read-out": "enzyme activity", "action": "inhibitor", "technique": "fluorescence", "endpoint": "IC50", "value": "30 nM"}
{"Structure (SMILES)": "Cc1cc(Oc2ncccc2CN2CCN(c3c(C)cccc3C)CC2)ccc1-c1c(C)c(=O)[nH]c(=O)n1C", "target": "ADRA2C", "read-out": "ligand displacement", "technique": "radioligand", "endpoint": "Ki", "value": "194 nM"}
{"Structure (SMILES)": "COc1cc(-c2cncc3c2CN(C)Cc2cc(N4CCNCC4)ccc2-3)cc(OC)c1OC", "target": "STE20/SPS1-related proline-alanine-rich protein kinase (STK39, Homo sapiens, UniProt Q9UEW8)", "read-out": "enzyme activity", "action": "inhibitor", "tested at": "1 µM", "endpoint": "remaining activity", "value": "105%"}
{"Structure (SMILES)": "CN(C)c1ncnc2c1ncn2[C@@H]1O[C@H](CO)[C@@H](O)[C@H]1O", "target": "Adenosine receptor A3 (ADORA3, Homo sapiens, UniProt P0DMS8, M174L)", "read-out": "G protein activation", "action": "agonist", "endpoint": "EC50", "value": "5400 nM"}
{"Structure (SMILES)": "Cc1cc([C@@H](C)Nc2ccccc2C(=O)O)c2nc(N3CCC(F)(F)CC3)c(C#N)c(=O)n2c1", "target": "Serine/threonine-protein kinase PLK3 (PLK3, Homo sapiens, UniProt Q9H4B4)", "read-out": "binding", "technique": "competition with immobilised ligand", "tested at": "1 µM", "endpoint": "remaining binding", "value": "95%"}
{"note": "For quick reference, copied from above:"}
{"Structure (SMILES)": "Cc1cc(Oc2ncccc2CN2CCN(c3ccccc3C(F)(F)F)CC2)ccc1-c1c(C)c(=O)[nH]c(=O)n1C", "target": "ADRA2C", "read-out": "ligand displacement", "technique": "radioligand", "endpoint": "Ki", "value": "18.4 nM"}
{"Structure (SMILES)": "CNc1ncc2c(/C=C/C(=O)N3CCC(OC)CC3)nn(Cc3cccc(C(F)(F)F)c3)c2n1", "target": "Serine/threonine-protein kinase tousled-like 1 (TLK1, Homo sapiens, UniProt Q9UKI8)", "read-out": "enzyme activity", "action": "inhibitor", "technique": "radiometric", "tested at": "1 µM", "endpoint": "remaining activity", "value": "92%"}
